Measured values pooled from the literature.
Lines come from different studies, so protocols differ. Several values in a cell are separate wells, animals, samples, runs or records. ± gives the spread as reported.
CD274: Programmed cell death 1 ligand 1 (CD274, Homo sapiens, UniProt Q9NZQ7)
TOP2A: DNA topoisomerase 2-alpha (TOP2A, Homo sapiens, UniProt P11388)
Cereblon/Ikaros: Cereblon/Ikaros (Homo sapiens, UniProt Q13422+Q96SW2)

Structure (SMILES) = COc1ccc(F)cc1C(=O)NCc1ccc(-c2nn([C@@H](C)C(F)(F)F)c(N)c2C(N)=O)cc1; target = BTK (Homo sapiens, UniProt Q06187, C481S); test = surface plasmon resonance; endpoint = dissociation half-life; result = 1.5 h
Structure (SMILES) = C=C1CN(S(=O)(=O)c2ccc(C)cc2)CCCN(Cc2ccccc2)CCCN(S(=O)(=O)c2ccc(C)cc2)C1; target = Protein transport protein Sec61 subunit alpha isoform 1 (Homo sapiens, UniProt P61619); test = Sec61-dependent translocation, inhibitor, item: CD4 signal peptide-FLuc reporter; test system = HEK293; setting = concentration not given, 6 h; how to read = relative to: mock; endpoint = FLuc/RLuc ratio; result = 2.13
Structure (SMILES) = COc1ccc(C(=O)/C=C/c2cccc(-c3cccc(-c4ccc(CNC(CO)(CO)CO)c(OC)n4)c3C)c2)cc1; target = CD274; test = degrader, western blot; test system = HL-60; setting = 1 µM; endpoint = degradation; result = < 5%
Structure (SMILES) = O=c1nc(SCc2cc(F)cc(C(F)(F)F)c2)nc(SCc2nc3ccccc3[nH]2)[nH]1; target = TOP2A; test = decatenation; setting = 7.8 µM, replicate 2; endpoint = decatenated DNA; result = 100%
Structure (SMILES) = Nc1nc2c(nc(Br)n2[C@@H]2O[C@@H]3COP(=O)(O)O[C@H]3[C@H]2O)c(=O)[nH]1; target = anti-cGMP antibody; test = antibody binding, competitive cGMP EIA; setting = concentration not given, acetylated samples; how to read = relative to: EC50 cGMP over EC50 cpd, higher = stronger binding; endpoint = relative binding affinity; result = 4.98
Structure (SMILES) = CC(C)c1ccc(CSc2nc(SCc3ccc4sccc4c3)[nH]c(=O)n2)cc1; target = TOP2A; test = decatenation; setting = 31.25 µM, replicate 1; endpoint = decatenated DNA; result = 0%
Structure (SMILES) = CCC(C)(NCCc1ccc(Cl)c(C(F)(F)F)c1)c1cccc(NC2=CC(=O)N(C3CCC(=O)NC3=O)C2=O)c1 (stereo not drawn); target = Cereblon/Ikaros; test = protein degradation, degrader, HiBiT luminescence; test system = Jurkat; endpoint = Dmax; result = 79%
Structure (SMILES) = CC[S+]([O-])c1nc(-c2ccccc2)cc(C(F)(F)F)n1 (stereo not drawn); target = KPNB1 (Homo sapiens, UniProt Q14974, C585A); test = thermal shift; setting = 30 µM, 2 h; endpoint = Tm1; result = 44.9 °C
Structure (SMILES) = N#C/C(=C\c1ccc(O)c(O)c1)C(N)=S; target = TGM2 (Homo sapiens, UniProt P21980); test = enzyme activity, inhibitor; setting = concentration not given, added: DTT; how to read = relative to: without DTT over with DTT; endpoint = potency reduction; result = ~17 fold
Structure (SMILES) = Cc1cc(=O)oc2cc(O[C@@H]3O[C@H](CO)[C@@H](O)[C@H](O)[C@H]3O)ccc12; target = GBA1 (Homo sapiens, UniProt P04062, R534H); test = substrate; setting = 5 nM enzyme; endpoint = Vmax; result = 1.7 pmol/min
Structure (SMILES) = CCCOC(=O)C1CCN(C(=O)c2ccc(N(C)Cc3cnc4nc(N)nc(N)c4n3)cc2)CC1; target = Pteridine reductase 1 (Leishmania major, UniProt Q01782); setting = hDHFR weight 10; how to read = relative to: LmPTR1, LmDHFR over hDHFR, 1.0 selective, 0.0 non-selective; endpoint = partition index; result = 0.89
Structure (SMILES) = NC(N)=S; target = Urea transporter 1 (Homo sapiens, UniProt Q13336); how to read = relative to: compound over urea Km; endpoint = affinity ratio; result = ~10
Structure (SMILES) = Nc1nc2c(ncn2[C@@H]2O[C@H](COP(=O)(O)O)[C@@H](O)[C@H]2O)c(=O)[nH]1; target = GUK1 (Homo sapiens, UniProt Q16774, R148A); test = binding, ITC; endpoint = ΔH; result = -9.67 ± 0.09 kcal/mol
Structure (SMILES) = N[C@@H](Cc1ccccc1)C(=O)O; target = ADRB2 (Homo sapiens, UniProt P07550); test system = HEK293 expressing β2AR; setting = 10 µM; endpoint = cAMP level; result = 19.1 pmol/mg protein and 20.2 pmol/mg protein and 19.7 pmol/mg protein and 18.3 pmol/mg protein and 20.3 pmol/mg protein
Structure (SMILES) = [Cl-].[Na+]; target = GUK1 (Homo sapiens, UniProt Q16774); test = enzyme activity, NADH-coupled; setting = 7.5 mM; endpoint = reaction velocity; result = -0.00247 µM/s and 0.0072 µM/s and 0.0165 µM/s
Structure (SMILES) = CC(C)c1cccc2c(-c3ccccc3)cc(/C=C/c3ccc(C(=O)O)cc3)nc12; target = RARA (Homo sapiens, UniProt P10276); test = transactivation, antagonist, reporter gene; setting = up to 3300 nM, added: 9-cis-retinoic acid at EC80, 180 nM; endpoint = antagonist activity; result = inactive
Structure (SMILES) = C[C@@H]1C[C@H](Nc2ccccc2)c2cc(F)ccc2N1C(=O)c1ccncn1; target = Ecdysone receptor (Aedes albopictus, UniProt Q9U3Y4); test = ligand binding, inhibitor; test system = intact cells; setting = added: [3H]ponasterone A; how to read = direction not given; endpoint = pIC50 Z-score; result = -0.62
Structure (SMILES) = Oc1ccccc1-c1n[nH]cc1-c1ccnc2ccccc12; target = Actin-regulating kinase PRK1 (PRK1, Candida albicans, UniProt Q5A961); test = kinase binding, MIB/MS competition; test system = Candida albicans lysate; setting = 1 µM; how to read = relative to: DMSO, negative = stronger binding; endpoint = log2 fold change; result = -0.19
Structure (SMILES) = Nc1nc2c(ncn2[C@@H]2O[C@@H]3COP(=O)(O)O[C@H]3[C@H]2O)c(=O)[nH]1; target = Cone cGMP-gated channel (Morone saxatilis, UniProt Q3I0N1+Q3I0N2); test = channel current, agonist, suction electrode; test system = cone outer segments; setting = added: 0.2 µM Ca2+; endpoint = Hill coefficient; result = 2.47 ± 0.41
Structure (SMILES) = CCOc1cccc(C2CC(=O)Nc3c2c(C)nn3-c2ccc3nncn3n2)c1 (stereo not drawn); target = DDB1 (Homo sapiens, UniProt Q16531); test = binding, surface plasmon resonance; setting = 30 µM; endpoint = SPR response; result = 10.8 RU
Structure (SMILES) = C=CC(=O)N1CCC(COCC(=O)N2CCN(c3nc(-c4cnc(N)nc4C(F)F)nc(N4CCOC[C@@H]4C)n3)CC2)CC1; target = Myosin-IIIa (MYO3A, Homo sapiens, UniProt Q8NEV4); test = KINOMEscan; setting = 1 µM; endpoint = remaining binding; result = 100%
Structure (SMILES) = COc1cc(-c2cn(C)c(=O)c3cnccc23)cc(OC)c1CN1CCN(CCCCCOc2cc(-c3scnc3C)ccc2CNC(=O)[C@@H]2C[C@@H](O)CN2C(=O)[C@@H](NC(=O)C2(F)CC2)C(C)(C)C)CC1; target = VHL/BRD9 (Homo sapiens, UniProt P40337+Q9H8M2); test = BRD9 degradation, degrader, HiBiT; test system = HEK293T expressing BRD9-HiBiT; setting = 15 h; endpoint = Dmax; result = 77%
Structure (SMILES) = COc1cc(F)ccc1-c1ncnc(Nc2cccc(C[S@](C)(=N)=O)c2)n1; target = PHKG2 (Homo sapiens, UniProt P15735); test = kinase activity; setting = 10 µM, added: 10 µM ATP; endpoint = remaining activity; result = 98%
Structure (SMILES) = Cc1nc(CSc2nc(SCc3ccc(C(C)C)cc3)nc(=O)[nH]2)cs1; target = TOP2A; test = decatenation; setting = 15.6 µM, replicate 2; endpoint = decatenated DNA; result = 44.7%
Structure (SMILES) = CC[C@@H](C)[C@@H](NC(=O)[C@@H](Cc1ccc(O)cc1)NC(=O)[C@H]1CCCN1C(=O)[C@@H](CCCNC(=N)N)NC(=O)[C@H](N)Cc1c[nH]cn1)C(=O)N[C@H](C)C(=O)N[C@H](Cc1c[nH]cn1)C(=O)N[C@H](CCCNC(=N)N)C(=O)N[C@@H](C(=O)N[C@H](Cc1ccc(O)cc1)C(=O)N[C@H](CO)C(=O)N[C@H](Cc1ccccc1)C(N)=O)C(C)C; target = Transferrin receptor protein 1 (Tfrc, Mus musculus, UniProt Q62351); test = flow cytometry; test system = DC2.4; setting = 24 h, pH 6, replicate 3, unit not given; how to read = relative to: 0 h; endpoint = surface TFRC expression; result = 0.938
Structure (SMILES) = CC(C)c1noc2ncc(C(=O)c3ccccc3O)cc12; target = Otop1 (Mus musculus, UniProt Q80VM9); test = pH 8.5-evoked current, patch clamp; setting = 10 µM, pH 8.5, third pulse after pH 8.5 alone; endpoint = normalized current I3/I1; result = 1.02
Structure (SMILES) = CCN1CCC[C@H]1CNC(=O)c1c(O)c(Cl)cc(Cl)c1OC; target = CMKLR1 (Homo sapiens, UniProt Q99788); test = β-arrestin recruitment, TANGO luminescence; setting = concentration not given; how to read = relative to: basal luminescence; endpoint = log2 fold change; result = 0.346
Structure (SMILES) = CCN(CCO)CCCC(C)Nc1ccnc2cc(Cl)ccc12 (stereo not drawn); target = SCN5A (Homo sapiens, UniProt Q14524); test = sodium current, whole-cell patch clamp; setting = 100 µM, without ATX-II; endpoint = inactivation slope factor; result = 6.42 mV/e-fold and 5.82 mV/e-fold and 6.43 mV/e-fold
Structure (SMILES) = COc1cc(O)c2c(c1)oc(=O)c1c3cc(O)c(O)cc3oc21; target = MAL12 (Saccharomyces cerevisiae S288c, UniProt P53341); test = circular dichroism; setting = molar ratio 1:2; endpoint = β-Sheet content; result = 42.8%
Structure (SMILES) = Cc1cccc(N2CC(C(=O)O)CC2=O)c1 (stereo not drawn); target = Histone-lysine N-methyltransferase SETDB1, triple tudor domain (SETDB1, Homo sapiens, UniProt Q15047); test = binding, affinity selection mass spectrometry; how to read = relative to: other proteins in batch; endpoint = fold enrichment; result = 1.04
Structure (SMILES) = NCCCS(=O)(=O)O; target = SLC6A6 (Homo sapiens, UniProt P31641, Y138A); test = binding, microscale thermophoresis; setting = 1.95 µM, room temperature, added: 50 nM labelled protein; how to read = higher = more binding; endpoint = normalised MST signal; result = -0.0015
Structure (SMILES) = CCC1(O)CCCN(C(=O)c2ccc(-c3ccc(F)c(NC(=O)CCl)c3)cc2)C1 (stereo not drawn); target = DNA dC->dU-editing enzyme APOBEC-3A (Homo sapiens, UniProt P31941); test = covalent adduct, intact protein MS; setting = 1 h, 20-fold excess, 500 µM; endpoint = unmodified protein; result = 0%
Structure (SMILES) = O=C1CCC(N2C(=O)C=C(Nc3cccc(S(=O)(=O)NCCc4ccc(C(F)(F)F)c(Cl)c4)c3)C2=O)C(=O)N1 (stereo not drawn); target = Cereblon/Ikaros; test = protein degradation, degrader, HiBiT luminescence; test system = Jurkat; endpoint = Dmax; result = 52%
Structure (SMILES) = CCOC(=O)C1=C(CN2CCc3ccccc32)NC(=O)NC1c1ccccc1OC(F)F (stereo not drawn); target = AASS, SDH domain (Homo sapiens, UniProt Q9UDR5); test = binding, surface plasmon resonance; setting = 5 µM; endpoint = SPR response; result = 10.4 RU
Structure (SMILES) = C[C@@H]1CC=N[C@H]1C(=O)NCCCC[C@H](N)C(=O)O; target = chimeric pyrrolysyl-tRNA synthetase, Methanosarcina mazei/barkeri; test = aminoacylation, substrate; setting = pH 7.2, 10 mM MgCl2, added: ATP, tRNA(Pyl); endpoint = Km; result = 21.03 ± 0.15 µM
Structure (SMILES) = c1ccc(CCCCCOCCc2ccc3c(c2)OCO3)cc1; target = ATP2A2 (Sus scrofa, UniProt P11607); test = ATPase Vmax increase, activator; test system = pig microsomes; setting = 0.1 to 50 µM; how to read = relative to: vehicle; endpoint = Emax; result = ~40%
Structure (SMILES) = CN1CCN(Cc2ccc(-c3cnc4[nH]cc(-c5ccc6[nH]ccc6c5)c4c3)cc2)CC1; target = PKN1 (Homo sapiens, UniProt Q16512); test = inhibitor; endpoint = Hill slope; result = -1.03
Structure (SMILES) = O=C(O)c1ccc(O)cc1; target = Bestrophin-2a (BEST2, Homo sapiens, UniProt Q8NFU1); test = whole-cell patch clamp; test system = HEK293 transiently expressing channel; setting = concentration not given, membrane potential 80 mV; endpoint = current density; result = 96.2 pA/pF and 165 pA/pF and 221 pA/pF and 113 pA/pF and 131 pA/pF and 199 pA/pF
Structure (SMILES) = CCS(=O)(=O)N1CCCCN2[C@H](CO)[C@@H](c3ccc(-c4ccccc4C)cc3)[C@@H]2C1; target = IDE (Homo sapiens, UniProt P14735); test = enzyme activity, inhibitor, fluorogenic kinetic; setting = added: Mca-RPPGFSAFK(Dnp)-OH substrate; endpoint = EC50; result = 410 nM
Structure (SMILES) = COc1nc(-c2cccc(-c3ccccc3)c2C)ccc1CNCCNC(=O)CCCCCCCCCCCN1CCN(CCNC(=O)c2cc3c(=O)n4cccc(C)c4nc3n(CCc3cccs3)c2=N)CC1; target = CD274; test = degrader, western blot; test system = HL-60; setting = 1 µM; endpoint = degradation; result = 34.6 ± 3.6%
Structure (SMILES) = Cc1n[nH]c2ccc(-c3cc(OC[C@@H](N)Cc4ccccc4)cnc3-c3ccoc3)cc12; target = Mitogen-activated protein kinase MKC1 (MKC1, Candida albicans, UniProt P43068); test = kinase binding, competitor, MIB/MS competition, item: MKC1; test system = Candida albicans cell lysate; setting = 10 µM; how to read = relative to: DMSO; endpoint = log2 fold change; result = -1.76
Structure (SMILES) = O=c1cc(-c2ccc(OS(=O)(=O)[O-])cc2)oc2cc(OS(=O)(=O)[O-])cc(OCc3cccc(COc4cc(OS(=O)(=O)[O-])cc5oc(-c6ccc(OS(=O)(=O)[O-])cc6)cc(=O)c45)n3)c12.[Na+].[Na+].[Na+].[Na+]; target = Neutrophil elastase (ELANE, Homo sapiens, UniProt P08246); setting = 750 nM, added: chromogenic substrate; endpoint = Vmax; result = 19 ± 0.7 mAU/min
